Values quoted from earlier work as cited in several papers.
Each numbered part shows a few of the values that one paper quotes. pKd: −log10 of the molar value.
UniProt Q99967, sequence (whole entry, looked up): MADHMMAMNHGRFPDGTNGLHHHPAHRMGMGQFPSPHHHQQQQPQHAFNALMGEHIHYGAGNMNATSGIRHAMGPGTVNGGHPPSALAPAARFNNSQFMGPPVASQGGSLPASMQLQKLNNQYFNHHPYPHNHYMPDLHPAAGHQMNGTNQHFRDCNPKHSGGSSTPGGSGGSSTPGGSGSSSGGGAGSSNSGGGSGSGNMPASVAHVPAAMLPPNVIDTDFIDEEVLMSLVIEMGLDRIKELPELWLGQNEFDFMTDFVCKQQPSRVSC

Sample 1 — organism: Escherichia coli; form: peptide
Molecule	MIC
MKLRRRLRTRMVALLVLGVLFLMLLFFIIFLRRMMLMRRFRA	100 µM
MKKKKKGILQNNKKKKYTLFNRMVVFLFLGFIMIIFVQKYKKVIYHK	12.5 µM
HRAIMLRIRQMMT	> 1000 µg/mL
MNTTSNMIHRAVQQKRISFRAAKLTVLFLFKRRLLRRLLRHREN	12.5 µM
HILRMRIRQMMT	> 1000 µg/mL
MEPFSKRFFLVFFKARCKCFFIKSWFLFFFFFTFLVRRKKGVQKFFYE	3.1 µg/mL
FPLTWLKWWKWKK	31.2 µg/mL
KTLAQLSAGVKRWH	> 1000 µg/mL

Single results of other studies
CBP TAZ1 domain: CBP TAZ1 domain (Mus musculus, UniProt P45481)
UniProt P45481, sequence (whole entry, looked up): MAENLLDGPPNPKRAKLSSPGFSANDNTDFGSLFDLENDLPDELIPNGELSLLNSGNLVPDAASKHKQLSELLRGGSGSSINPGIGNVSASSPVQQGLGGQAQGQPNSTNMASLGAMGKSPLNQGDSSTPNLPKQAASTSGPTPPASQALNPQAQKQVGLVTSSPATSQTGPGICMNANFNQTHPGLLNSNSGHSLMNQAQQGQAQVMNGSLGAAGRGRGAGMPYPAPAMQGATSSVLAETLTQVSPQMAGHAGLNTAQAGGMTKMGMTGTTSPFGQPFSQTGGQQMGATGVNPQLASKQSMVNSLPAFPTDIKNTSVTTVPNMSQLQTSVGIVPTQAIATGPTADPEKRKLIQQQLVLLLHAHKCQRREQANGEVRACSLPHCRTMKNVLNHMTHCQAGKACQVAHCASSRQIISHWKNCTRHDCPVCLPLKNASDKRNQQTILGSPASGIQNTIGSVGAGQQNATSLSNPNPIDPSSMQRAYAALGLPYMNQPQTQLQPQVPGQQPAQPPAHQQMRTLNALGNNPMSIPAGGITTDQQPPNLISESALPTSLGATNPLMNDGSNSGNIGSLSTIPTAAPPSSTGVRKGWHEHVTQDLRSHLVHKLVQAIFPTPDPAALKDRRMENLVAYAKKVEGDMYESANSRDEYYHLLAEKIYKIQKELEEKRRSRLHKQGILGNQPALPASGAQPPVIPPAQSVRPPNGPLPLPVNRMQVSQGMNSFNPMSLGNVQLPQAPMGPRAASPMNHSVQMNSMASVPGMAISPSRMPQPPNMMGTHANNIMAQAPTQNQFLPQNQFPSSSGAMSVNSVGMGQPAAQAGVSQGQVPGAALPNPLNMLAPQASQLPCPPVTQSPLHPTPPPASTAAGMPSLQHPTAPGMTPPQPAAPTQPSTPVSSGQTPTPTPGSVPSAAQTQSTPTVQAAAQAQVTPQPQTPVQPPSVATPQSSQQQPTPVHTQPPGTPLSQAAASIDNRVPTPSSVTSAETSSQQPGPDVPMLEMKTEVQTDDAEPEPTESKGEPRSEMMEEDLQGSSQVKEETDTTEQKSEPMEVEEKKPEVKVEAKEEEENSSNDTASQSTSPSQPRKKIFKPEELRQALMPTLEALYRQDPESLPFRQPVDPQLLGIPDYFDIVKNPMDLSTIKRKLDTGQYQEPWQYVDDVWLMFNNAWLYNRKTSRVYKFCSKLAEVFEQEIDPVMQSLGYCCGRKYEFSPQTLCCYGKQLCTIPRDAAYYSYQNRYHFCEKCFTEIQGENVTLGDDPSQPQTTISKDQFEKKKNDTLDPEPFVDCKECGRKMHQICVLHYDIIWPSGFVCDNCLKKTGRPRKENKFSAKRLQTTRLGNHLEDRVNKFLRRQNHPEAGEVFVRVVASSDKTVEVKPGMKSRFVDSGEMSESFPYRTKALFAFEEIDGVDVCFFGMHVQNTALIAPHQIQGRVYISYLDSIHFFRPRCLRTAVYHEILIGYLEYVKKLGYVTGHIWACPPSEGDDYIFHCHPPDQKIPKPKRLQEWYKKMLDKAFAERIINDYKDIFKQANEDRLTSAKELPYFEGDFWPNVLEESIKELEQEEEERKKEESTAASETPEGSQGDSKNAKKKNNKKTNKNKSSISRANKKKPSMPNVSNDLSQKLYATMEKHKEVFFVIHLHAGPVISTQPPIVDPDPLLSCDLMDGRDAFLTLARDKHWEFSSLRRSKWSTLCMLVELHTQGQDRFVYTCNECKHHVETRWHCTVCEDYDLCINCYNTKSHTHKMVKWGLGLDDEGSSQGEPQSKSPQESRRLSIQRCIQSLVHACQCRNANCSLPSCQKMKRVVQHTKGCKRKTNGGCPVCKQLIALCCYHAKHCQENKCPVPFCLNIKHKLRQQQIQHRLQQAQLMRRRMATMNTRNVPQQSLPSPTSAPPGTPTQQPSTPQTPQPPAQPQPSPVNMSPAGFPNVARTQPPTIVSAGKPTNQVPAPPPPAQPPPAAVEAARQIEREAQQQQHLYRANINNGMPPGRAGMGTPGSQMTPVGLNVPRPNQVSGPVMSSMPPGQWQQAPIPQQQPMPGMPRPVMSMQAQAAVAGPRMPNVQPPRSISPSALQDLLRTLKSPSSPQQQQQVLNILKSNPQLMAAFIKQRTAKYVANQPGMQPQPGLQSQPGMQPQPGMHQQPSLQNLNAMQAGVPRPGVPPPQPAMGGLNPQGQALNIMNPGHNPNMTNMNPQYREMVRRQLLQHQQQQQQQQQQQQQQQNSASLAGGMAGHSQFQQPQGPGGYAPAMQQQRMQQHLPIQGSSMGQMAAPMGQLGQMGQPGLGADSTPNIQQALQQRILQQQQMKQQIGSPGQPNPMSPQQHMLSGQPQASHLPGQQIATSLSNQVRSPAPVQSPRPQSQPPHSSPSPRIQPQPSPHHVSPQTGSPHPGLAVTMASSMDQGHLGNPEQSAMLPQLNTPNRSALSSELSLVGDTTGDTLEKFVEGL
B1: CCL1; sequence looked up; chain KSMQVPFSRCCFSFAEQEIPLRAILCYRNTSSICSNEGLIFKLKRGKEACALDTVGWVQRHRKMLRHCPSKRK
Substance	tested on	assay	system	conditions	scale	quantity	value
CITED2 CTAD (Homo sapiens, UniProt Q99967)	CBP TAZ1 domain	fluorescence anisotropy	–	–	–	pKd	8.00
LAGGGSASSSAHAAAFR	–	isocratic RP-HPLC, C18 column	peptide, water/acetonitrile, 0.1% TFA	25 °C	–	retention coefficient S	23.5
HIF1A CTAD (Homo sapiens, UniProt Q16665)	CBP TAZ1 domain	fluorescence anisotropy competition	–	–	–	pKd	6.05
B1 (CCL1)	CCR8 human G206W	inositol phosphate accumulation, agonist	–	–	–	EC50	no effect
substance P	NK1 receptor, truncated	–	–	–	baseline: truncated over full-length	affinity loss at truncated receptor	~10 fold
pegcetacoplan	–	–	human	270 mg/day for 28 days, approximate	–	AUC(0-last)	~414000 µg·h/mL
insulin (human)	neurons	outcome: decreased	–	concentration not given	–	ADDL binding	decreased
teicoplanin	–	–	healthy human subjects	intravenous, dose not given	–	Cmax	59 µM
